Published values pooled from the literature.
A part holds a random share of what one study measured. Changes are numbered by the printed parent chain.

Block 1
Target: RING finger protein unkempt homolog, zinc fingers 1-6, GST-SBP tag (UNK, Homo sapiens, UniProt Q9C0B0, residues 30-357)
Method: RNA Bind-n-Seq
Form: RNA
Sample: in vitro
Tested at: not given
Setting: RNA with constant flanks, human and mouse sites, ends assumed
Reference: input RNA pool
Reading: higher = stronger binding
All sequences stand within: GGGAGUUCUACAGUCCGACGAUC … CAACAGAGGAUUGAGCAUCA
Residues (chain): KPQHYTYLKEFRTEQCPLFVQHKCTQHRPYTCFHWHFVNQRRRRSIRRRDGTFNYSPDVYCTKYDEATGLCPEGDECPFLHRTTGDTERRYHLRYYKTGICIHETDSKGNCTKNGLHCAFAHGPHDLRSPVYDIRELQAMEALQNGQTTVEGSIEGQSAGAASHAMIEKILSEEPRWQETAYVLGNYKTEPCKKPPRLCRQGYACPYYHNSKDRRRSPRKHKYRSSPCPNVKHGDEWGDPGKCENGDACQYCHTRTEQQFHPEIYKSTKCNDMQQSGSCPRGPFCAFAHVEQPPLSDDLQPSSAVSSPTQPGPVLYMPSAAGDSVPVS
| Oligonucleotide | bound/input enrichment [ratio] |
| --- | --- |
| UGUUGUGUCUGUGCUAACCUGGGAACUGGCCACCUCCAUUGUUCUUUGCUUCUGCACAAGAUCCAUGAAAAUCCAUUGAUCAGAAGAACUUCACCUGCAGACCUCUUCAAGUGACACUAU | 0.0777 |
| AAAGGUGACAAGGCUCUUGAUGGCUACAGUAAAAAGAAGUAUGUCUGCAAAUUGCUCUUCAUCUUUCUCCUUGGUCAUGACAUUGACUUUGGACACAUGGAAGCUGUGAAUCUUCUGAGC | 0.108 |
| GAAGAGGAAAGAUUAGUAUCUCUUGUAUUUGGGCUUUUGAAACAAAGAAAACUUAAUUUUUUAGAAAUCUAUGGUGAAGAAAUGAUUAUUACAGCAAAGAACAUCAUUAAAGAGCGUGUG | 6.16 |
| AUUGACUGCAAUAAAAUUUAUGAAAGGGUAGUAGAAAAGCCCUCCACAGACUUGCCUCUAGGCACAACAUUUUGGCUAGGACAGAGAAAUAAUGCGCAUGGAUAUUUUAAGGGUAUAAUG | 0.453 |
| AAUUUUUUUACUAUAAAAAUACAGGAAGGAAGUAUACAUUAUAACAGCAGACUGUGUGUGUUCCUGAUUCCUGGAGGUAAUAGUGGGGGGAAACCAACCAUACUUUUUAAAGGCACUUUU | 0.636 |
| UGUGUGAUUUGUGACUCCUAUGUGCGUCCCUGCACUCUGGUGCGCAUAUGUGAUGAGUGUAACUAUGGAUCUUACCAGGGGCGCUGUGUGAUCUGUGGAGGACCUGGGGUCUCUGAUGCC | 0.327 |
| UUUCGCUUGGCGCUGGGCAGCUUCGUGGAGGAGUACAACAACAAGGUUCAGCUUGUUGGUUUAGAUGAGGAGAGUUCAGAGUUUAUUUGCAGAAACACCUUUGACCACCCAUACCCCACC | 0.214 |
| CCCAGUUGUGACAUGAUGGAACUAAGGCGCCGUUAUCAAAAUUUGUAUAUACCUAGUGACUUUUUUGAUGCUCAAUUUACAUGGGUGGAUGCUUUCCCUUUGUCAAGACCAUUUCAGCUG | 11.3 |

Block 2
Target: CCND3, cyclin fold, Cln2 fusion (human)
Method: yeast growth competition, sequencing
Sample: yeast
Setting: weak parent motif
Reference: not given
Reading: higher = stronger binding
Starting sequence: viral docking peptide; PGASRRLFGSSAD
| Substitution | normalised enrichment score |
| --- | --- |
| G9A | 0.203 |
| L7A | 0.0958 |
| R5A L7A | 0.222 |
| R5K | 0.185 |
| G2A | 0.202 |
| R6A | 0.113 |
| D13A | 0.13 |
| R5K F8L | 0.0672 |
| S4A | 0.126 |

Block 3
Target: UBE2D4 UBC core domain (UniProt Q9Y2X8)
Method: yeast two-hybrid
Sample: yeast
Setting: mostly zero background
Reference: not given
Reading: higher = stronger interaction
B1: PEX2 RING domain (UniProt P28328); chain DNTLATSGKECALCGEWPTMPHTIGCEHIFCYFCAKSSFLFDVYFTCPKCGTEVHSLQPLK
B2: ANKIB1 RING domain (UniProt Q9P2G1); chain LSPGDLDTSLCDICMCSISVFEDPVDMPCGHDFCRGCWESFLNLKIQEGEAHNIFCPAYDCFQLVPVDIIE
B3: RNF175 RING domain (UniProt Q8N4F7); chain LPTRSLSDNICAVCGQKIIVELDEEGLIENTYQLSCNHVFHEFCIRGWCIVGKKQTCPYCKEKVDLKRMIS
B4: MSL2 RING domain (UniProt Q9HCI7); chain LLPYFRQSLSCCVCGHLLQDPIAPTNSTCQHYVCKTCKGKKMMMKPSCSWCKDYEQFEENKQ
B5: TRIM35 RING domain (UniProt Q9UPQ4); chain PSRSFKEELLCAVCYDPFRDAVTLRCGHNFCRGCVSRCWEVQVSPTCPVCKDRASPADLRT
Construct (chain): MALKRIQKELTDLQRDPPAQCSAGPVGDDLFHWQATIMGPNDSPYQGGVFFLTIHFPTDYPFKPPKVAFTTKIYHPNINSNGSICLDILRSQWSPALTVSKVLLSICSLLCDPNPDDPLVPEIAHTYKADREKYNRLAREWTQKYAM
| Molecule | lacZ reporter activity |
| --- | --- |
| B1 (PEX2 RING domain) | 0 |
| B2 (ANKIB1 RING domain) | 0 |
| MANWVFCNRCFQPPHRTSCFSLTNCGHVYCDACLGKGKKNECLICKAPCRTVLLSK (RNF212 RING domain (UniProt Q495C1)) | 0 |
| SYEDKSNDFVCPICFDMIEEAYMTKCGHSFCYKCIHQSLEDNNRCPKCNYVVDNIDHLY (COP1 RING domain (UniProt Q8NHY2)) | 0 |
| B3 (RNF175 RING domain) | 0 |
| ISNDSETLEECMVCSDMKRDTLFGPCGHIATCSLCSPRVKKCLICKEQVQSRTKIE (MIB1 RING domain (UniProt Q86YT6)) | 0 |
| B4 (MSL2 RING domain) | 0 |
| B5 (TRIM35 RING domain) | 0 |

Block 4
Target: HLA class I histocompatibility antigen, A alpha chain, allele A*80:01 (Homo sapiens, UniProt P04439)
Observed: peptide-MHC binding
Form: peptide
Tested at: concentration not given
| Molecule | binding |
| --- | --- |
| SVIDHIHYM | inactive |
| AEDLADHHV | inactive |
| KARNIISPV | inactive |
| IRMWNQAAL | inactive |
| ELYENKPDV | inactive |
| KMKDPKMYH | inactive |
| GFPFFIMPK | inactive |
| LEEDIQHFL | inactive |

A few entries again (block 1):
| Oligonucleotide | bound/input enrichment [ratio] |
| --- | --- |
| AAUUUUUUUACUAUAAAAAUACAGGAAGGAAGUAUACAUUAUAACAGCAGACUGUGUGUGUUCCUGAUUCCUGGAGGUAAUAGUGGGGGGAAACCAACCAUACUUUUUAAAGGCACUUUU | 0.636 |
| UGUGUGAUUUGUGACUCCUAUGUGCGUCCCUGCACUCUGGUGCGCAUAUGUGAUGAGUGUAACUAUGGAUCUUACCAGGGGCGCUGUGUGAUCUGUGGAGGACCUGGGGUCUCUGAUGCC | 0.327 |
| UUUCGCUUGGCGCUGGGCAGCUUCGUGGAGGAGUACAACAACAAGGUUCAGCUUGUUGGUUUAGAUGAGGAGAGUUCAGAGUUUAUUUGCAGAAACACCUUUGACCACCCAUACCCCACC | 0.214 |
